Assay results of several laboratories.
Each numbered part is a random draw from the data of one study; scales do not carry over between parts. Changes are numbered by the printed parent chain.

Study 1 — technique: Sort-seq; refers to: YFP reporter; medium: E. coli; notes: PhoQ-PhoP variant library; with: 10 µM Mg2+; relative to: high Mg2+ state; reading: higher = stronger signaling
Substance: PhoQ, residues 284 288 289 292 302 303 AEGLLW
| target | fold induction |
| --- | --- |
| PhoP, residues 12 14 15 18 19 QYFSL (Escherichia coli, UniProt P23836) | 3.26 |
| PhoP, residues 12 14 15 18 19 NYFRM (Escherichia coli, UniProt P23836) | 6.17 |
| PhoP, residues 12 14 15 18 19 TQALL (Escherichia coli, UniProt P23836) | 4.6 |

Study 2 — technique: RNA Bind-n-Seq; molecule type: RNA; medium: in vitro; tested at: 20 nM; notes: 6-mer, flanks averaged, single round; with: 150 mM LiCl; relative to: input library; reading: higher = stronger binding
Target: TAR DNA-binding protein 43, full length, His tag (TARDBP, Homo sapiens, UniProt Q13148, residues 1-414)
| Strand | 6-mer enrichment (R) |
| --- | --- |
| GCCAGG | 1.02 |
| ACUAUC | 0.833 |
| GCAGAA | 0.915 |
| CACGCA | 0.881 |
| AGCCAG | 0.913 |
| GCGACG | 0.942 |
| CAUUUA | 0.986 |
| GCCUAU | 0.943 |
| ACUGCC | 0.907 |
| UCAAGG | 0.855 |
| CCGAUU | 0.865 |
| GGAUGA | 1.11 |
| UUAAAA | 0.947 |
| AAUCAG | 0.819 |
| ACGCCU | 0.885 |
| UUUGUA | 1.25 |
| CGGGAU | 0.953 |

Study 3 — target: CEP164, C-terminal peptide (human); technique: DHFR complementation, deep sequencing; medium: yeast; relative to: wild type; reading: higher = weaker binding
Notes: single substitutions, model-inferred values
Starting sequence: PDZK1, PDZ domain 2 (human); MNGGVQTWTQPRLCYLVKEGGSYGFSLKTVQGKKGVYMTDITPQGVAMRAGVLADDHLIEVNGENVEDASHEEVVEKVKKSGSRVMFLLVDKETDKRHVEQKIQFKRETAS; partner HNRVKVYRF
| Change | binding free energy change |
| --- | --- |
| R97S | -0.127 kcal/mol |
| E67R | 0.189 kcal/mol |
| L13N | 0.0981 kcal/mol |
| V78D | 1.8 kcal/mol |
| R12K | 0.0722 kcal/mol |
| K34A | 0.211 kcal/mol |
| D56P | 0.867 kcal/mol |
| G24H | 0.857 kcal/mol |
| F105V | -0.166 kcal/mol |
| V17L | 0.426 kcal/mol |
| K106V | -0.143 kcal/mol |
| G35K | 0.649 kcal/mol |
| G24W | 1.12 kcal/mol |
| S22H | 0.427 kcal/mol |
| V17Q | -0.0661 kcal/mol |
| V52H | 1.43 kcal/mol |

Study 4 — target: CCNA1, cyclin fold, Cln2 fusion (human); technique: yeast growth competition, sequencing; medium: yeast; notes: weak parent motif; relative to: not given; reading: higher = stronger binding
Starting sequence: CUX1 docking peptide (human); SRIRRELFIEEIQ
| Change | normalised enrichment score |
| --- | --- |
| SRIRRALFIEEIQ [E6A] | 0.573 |
| SRIRAELFIEEIQ [R5A] | 0.696 |
| SAIRRELFIEEIQ [R2A] | 0.188 |
| SRIRAEAFIEEIQ [R5A L7A] | 0.116 |
| SRIRKELFIEEIQ [R5K] | 0.81 |
| SRIRKELLIEEIQ [R5K F8L] | 0.139 |
| SRARRELFIEEIQ [I3A] | 0.263 |
| SRIRRELFIAEIQ [E10A] | 0.582 |
| SRIRREAFIEEIQ [L7A] | 0.399 |
| SRIRRELFAEEIQ [I9A] | 0.223 |

Study 5 — technique: RNA Bind-n-Seq; molecule type: RNA; medium: in vitro; tested at: 365 nM; relative to: no-protein control; reading: higher = stronger binding
Target: RNA binding protein fox-1 homolog 2, RRM domain, GST-SBP tag (RBFOX2, Homo sapiens, UniProt O43251-10, residues 100-194)
Notes: natural RNA segment, single round, ends assumed
Residues (chain): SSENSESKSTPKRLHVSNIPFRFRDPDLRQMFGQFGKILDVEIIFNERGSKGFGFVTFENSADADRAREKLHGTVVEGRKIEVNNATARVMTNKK
| Strand | RBNS enrichment (R) |
| --- | --- |
| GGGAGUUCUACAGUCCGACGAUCGCUCAUGAGGACACACUCUGGAAGUCGAGGGGCUGCCACGUGCAGAGGAAGUUCCCGGCCUGGGGGCUUUAUCCAGGGGUCCCAGUCGAGAGUGGCCCGAGGCCGUCCCUUGGAAUUCUCGGGUGCCAA | 0.359 |
| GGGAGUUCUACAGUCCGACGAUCACCACCGUAUUUUUAAAGUAUUUUUAUGAUCUUCGUAUACUCACACUUCGCUUGUAUUGUAAAAGGAGGGUAUAUUUGCACUUAUGUAUACUUUGACAGUUUGCCAAGAUUGGAAUUCUCGGGUGCCAA | 1.7 |
| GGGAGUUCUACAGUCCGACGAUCACAUGUCUGAGAUAACCAAGGUGAUUCAGGAUUUGAUCAAAAGAAGUCUAGUAAGAAUUAAUUACACAGAAGCCUCCUUUCAUUUCUAUGGGCCAAACAAAGGCCAUGGAUGGAAUUCUCGGGUGCCAA | 0.323 |
| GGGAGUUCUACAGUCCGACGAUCUCUUUAUAAAGUGGUAAAAGCCUGAAAUUCAGGGCAGCUCUCCAUGAGGUGCUGAAGGGCUCUUUUCAUAAGAAGCUAAGGCACUGCUGCCUGCCCCAGGUGUCCCGCUCUGGAAUUCUCGGGUGCCAA | 0.277 |
| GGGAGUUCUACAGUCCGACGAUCUAUCAGCAGCAACAACUGUCAGUUCAUCCUGCAUGGGAAAAAUGUUGGAAUGGGAGUCUGAAAUGGGGCUACUGUUUCAGUCCUAAUGUGCUGUGUGACAUUGGGACAACUGGAAUUCUCGGGUGCCAA | 0.797 |
| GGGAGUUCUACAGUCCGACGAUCUAAAGUACACAUGAUGUAUUCAGUGCUGCAAGAGUGUUUGAAAUGAGCACACUGCCUCAUUUUCCUCACCAACAAGACAAAGCCUUUCCAAUGAUUUUUUUUUAAACUUUUGGAAUUCUCGGGUGCCAA | 0.529 |
| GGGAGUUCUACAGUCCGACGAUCGUUGUGCAGUUUCAUAGAUGGGUCAGGAGGUGGACAAGUUGGGGCCAGAGAUGAUGGCAGUCCAGCAGCAACUCCCUGUGCUCCCUUCUCUUUGGGCAGAGAUUCUAUUUUGGAAUUCUCGGGUGCCAA | 0.567 |
| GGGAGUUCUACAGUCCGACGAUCGCCUCUCCUUGCCCUCUACACCCCGAGCCUCUCAGCCUGCCCUUCUUUCUCCUGCCUGACCCCUGGGUCUCCCUCAGAUUCCCUCCUCUCAGACAGCGCCAGGCCGGGGUUGGAAUUCUCGGGUGCCAA | 0.569 |
| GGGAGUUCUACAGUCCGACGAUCGCAUGCAGAAACUUGGAUGUCACUGCCUGACAUUCACUUCCAGAGAGGACCUAUCCCAAAUGUGGAAUUGACUGCCUAUGCCAAGUCCCUGGAAAAGGAGCUUCAGUAUUUGGAAUUCUCGGGUGCCAA | 9.27 |
| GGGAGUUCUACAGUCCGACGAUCACGGCAGCCCCAUCCUUCCCGCAGCACCAGCCUGAGCCACAGUGGGGCCCAUGGCCCCAGCUGGCUGGGUCGCCCCUCCUCGGGCGCCUGCGCUCCUCUGCAGCCUGAGCUGGAAUUCUCGGGUGCCAA | 0.294 |
| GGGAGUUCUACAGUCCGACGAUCCUACUUUAACAACUGUCAGAGAAACGUGAUGGGGGUAAGGAGGUACUUUUUAAAAUCGUUCAUAGACUUCUGUAAAAUGCAAGAUAAAUUAAAGUUAUUAUAACAGUAAUUGGAAUUCUCGGGUGCCAA | 1.53 |
| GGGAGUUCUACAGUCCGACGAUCGAAAGCCAGAGAGUCACUCUUACCUCCCUGUCUGCUUACUCACCCACUCUGUCCUUUCCUCACCAACUAACAUGUGCCAGCCAGGCAGAGUCUUGUGCUGUUCCCAGAACUGGAAUUCUCGGGUGCCAA | 0.667 |

Study 6 — target: MAFG, bZIP domain (human); technique: DHFR protein complementation; medium: yeast; relative to: wild-type JUN-FOS pair; reading: higher = stronger binding
Notes: single substitutions, most at no-binding floor
Starting sequence: JUN, bZIP domain (human); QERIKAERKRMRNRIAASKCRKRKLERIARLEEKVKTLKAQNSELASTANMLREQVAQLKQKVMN; partner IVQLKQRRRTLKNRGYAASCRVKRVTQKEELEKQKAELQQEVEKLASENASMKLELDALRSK
| Change | binding fitness |
| --- | --- |
| Q41S | -1.5 natural log |
| V56S | -1.52 natural log |
| N42H | -1.32 natural log |
| A57M | -1.5 natural log |
| R30S | -1.36 natural log |
| T37L | -1.32 natural log |
| V35C | -1.54 natural log |
| L52N | -1.48 natural log |
| A57Q | -1.5 natural log |
| R53K | -1.5 natural log |
| S43K | -1.29 natural log |
| L45I | -1.52 natural log |
| L31Q | -1.37 natural log |
| Q41E | -1.24 natural log |
| E54V | -1.4 natural log |
| Q55N | -1.44 natural log |
| R30A | -1.33 natural log |
| I28D | -1.32 natural log |
| E33V | -1.57 natural log |
| I28Q | -1.54 natural log |
| S43F | -1.19 natural log |
| S43H | -1.34 natural log |
| A29C | -1.49 natural log |

Some of these lines once more (study 2):
| Strand | 6-mer enrichment (R) |
| --- | --- |
| ACUAUC | 0.833 |
| GCCAGG | 1.02 |
| ACUGCC | 0.907 |
| GCCUAU | 0.943 |
| UUAAAA | 0.947 |
| CGGGAU | 0.953 |
| CCGAUU | 0.865 |
